Results of several laboratories.
Protocols differ between the studies behind these lines. Numbers after ± are the reported error.
PLCG2 SH2 domain: 1-phosphatidylinositol 4,5-bisphosphate phosphodiesterase gamma-2, SH2 domain (PLCG2, Homo sapiens, UniProt P16885)
Sequence of UniProt P16885 (whole entry, looked up): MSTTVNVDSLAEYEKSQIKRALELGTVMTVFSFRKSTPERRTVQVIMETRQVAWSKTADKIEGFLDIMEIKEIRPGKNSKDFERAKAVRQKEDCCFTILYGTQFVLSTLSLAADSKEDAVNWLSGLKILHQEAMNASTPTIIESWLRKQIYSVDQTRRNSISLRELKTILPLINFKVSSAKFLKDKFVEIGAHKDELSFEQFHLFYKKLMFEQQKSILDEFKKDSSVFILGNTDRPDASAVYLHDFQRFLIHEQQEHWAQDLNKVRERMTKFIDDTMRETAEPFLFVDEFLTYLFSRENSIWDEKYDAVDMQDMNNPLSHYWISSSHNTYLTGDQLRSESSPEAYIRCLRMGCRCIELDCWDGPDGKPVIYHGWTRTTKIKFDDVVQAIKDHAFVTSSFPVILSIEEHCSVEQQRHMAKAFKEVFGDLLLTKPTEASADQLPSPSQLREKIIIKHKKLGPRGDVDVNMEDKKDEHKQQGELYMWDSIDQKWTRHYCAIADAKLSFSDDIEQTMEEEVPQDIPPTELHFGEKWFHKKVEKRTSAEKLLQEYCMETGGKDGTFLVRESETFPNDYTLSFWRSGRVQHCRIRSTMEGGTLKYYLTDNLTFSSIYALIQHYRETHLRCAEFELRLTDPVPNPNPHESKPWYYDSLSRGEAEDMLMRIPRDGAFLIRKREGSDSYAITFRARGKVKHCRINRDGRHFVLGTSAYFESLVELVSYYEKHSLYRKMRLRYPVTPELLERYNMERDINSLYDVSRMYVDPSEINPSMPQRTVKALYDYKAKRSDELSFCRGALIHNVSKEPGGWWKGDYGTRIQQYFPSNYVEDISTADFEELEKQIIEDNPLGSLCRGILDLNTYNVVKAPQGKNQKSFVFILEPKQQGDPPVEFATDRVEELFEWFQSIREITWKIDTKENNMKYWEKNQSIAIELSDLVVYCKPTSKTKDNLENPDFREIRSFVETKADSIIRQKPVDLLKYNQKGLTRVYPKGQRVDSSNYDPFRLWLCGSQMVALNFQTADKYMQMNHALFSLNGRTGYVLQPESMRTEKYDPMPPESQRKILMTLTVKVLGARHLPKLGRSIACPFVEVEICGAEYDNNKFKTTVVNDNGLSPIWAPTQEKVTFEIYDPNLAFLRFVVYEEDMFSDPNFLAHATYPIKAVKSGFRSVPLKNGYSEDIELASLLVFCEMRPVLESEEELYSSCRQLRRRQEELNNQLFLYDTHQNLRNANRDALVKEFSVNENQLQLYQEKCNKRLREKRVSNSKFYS
HLA class I histocompatibility antigen, A alpha chain allele A*24:02: HLA class I histocompatibility antigen, A alpha chain, allele A*24:02 (Homo sapiens, UniProt P04439)
ampC: Beta-lactamase (ampC, Escherichia coli K-12, UniProt P00811)
Sequence of UniProt P00811 (whole entry, looked up): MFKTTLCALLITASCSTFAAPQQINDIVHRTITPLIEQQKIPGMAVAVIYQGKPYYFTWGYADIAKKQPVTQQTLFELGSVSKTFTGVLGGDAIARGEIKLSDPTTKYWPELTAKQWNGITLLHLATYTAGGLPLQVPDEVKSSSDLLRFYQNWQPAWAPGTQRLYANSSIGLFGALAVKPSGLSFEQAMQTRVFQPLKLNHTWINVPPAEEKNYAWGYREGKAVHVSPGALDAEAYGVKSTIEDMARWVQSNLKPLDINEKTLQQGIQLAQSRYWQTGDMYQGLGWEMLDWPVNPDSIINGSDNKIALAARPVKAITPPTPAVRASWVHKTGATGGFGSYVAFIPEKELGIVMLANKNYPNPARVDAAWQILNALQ
Sequence of UniProt P03023 (whole entry, unmodified, looked up): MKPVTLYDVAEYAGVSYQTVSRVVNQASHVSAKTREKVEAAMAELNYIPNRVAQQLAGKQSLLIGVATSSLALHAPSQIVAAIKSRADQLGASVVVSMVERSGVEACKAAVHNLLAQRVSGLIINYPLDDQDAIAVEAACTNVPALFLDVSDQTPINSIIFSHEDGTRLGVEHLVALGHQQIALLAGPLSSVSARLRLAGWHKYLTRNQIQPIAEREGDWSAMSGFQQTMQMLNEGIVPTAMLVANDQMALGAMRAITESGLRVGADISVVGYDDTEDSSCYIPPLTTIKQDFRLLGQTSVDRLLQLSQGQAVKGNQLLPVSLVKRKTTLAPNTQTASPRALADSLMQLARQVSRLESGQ
Sequence of UniProt P25100 (whole entry, looked up): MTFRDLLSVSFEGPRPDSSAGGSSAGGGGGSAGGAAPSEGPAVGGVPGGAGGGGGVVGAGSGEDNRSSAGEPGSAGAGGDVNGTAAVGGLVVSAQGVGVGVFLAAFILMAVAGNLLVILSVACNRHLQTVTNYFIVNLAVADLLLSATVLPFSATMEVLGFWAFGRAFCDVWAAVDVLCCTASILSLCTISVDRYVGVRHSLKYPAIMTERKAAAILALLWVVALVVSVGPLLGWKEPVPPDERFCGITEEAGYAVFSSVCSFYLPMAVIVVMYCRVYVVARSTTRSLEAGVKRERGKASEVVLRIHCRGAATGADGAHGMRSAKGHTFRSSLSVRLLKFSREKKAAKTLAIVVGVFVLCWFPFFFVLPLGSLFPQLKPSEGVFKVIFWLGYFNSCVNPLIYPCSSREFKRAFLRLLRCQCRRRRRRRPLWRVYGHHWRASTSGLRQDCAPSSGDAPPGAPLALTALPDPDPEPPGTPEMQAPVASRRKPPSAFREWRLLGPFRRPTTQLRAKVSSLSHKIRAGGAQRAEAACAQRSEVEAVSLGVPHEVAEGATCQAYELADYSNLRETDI
Sequence of UniProt Q9ULK4 (whole entry, looked up): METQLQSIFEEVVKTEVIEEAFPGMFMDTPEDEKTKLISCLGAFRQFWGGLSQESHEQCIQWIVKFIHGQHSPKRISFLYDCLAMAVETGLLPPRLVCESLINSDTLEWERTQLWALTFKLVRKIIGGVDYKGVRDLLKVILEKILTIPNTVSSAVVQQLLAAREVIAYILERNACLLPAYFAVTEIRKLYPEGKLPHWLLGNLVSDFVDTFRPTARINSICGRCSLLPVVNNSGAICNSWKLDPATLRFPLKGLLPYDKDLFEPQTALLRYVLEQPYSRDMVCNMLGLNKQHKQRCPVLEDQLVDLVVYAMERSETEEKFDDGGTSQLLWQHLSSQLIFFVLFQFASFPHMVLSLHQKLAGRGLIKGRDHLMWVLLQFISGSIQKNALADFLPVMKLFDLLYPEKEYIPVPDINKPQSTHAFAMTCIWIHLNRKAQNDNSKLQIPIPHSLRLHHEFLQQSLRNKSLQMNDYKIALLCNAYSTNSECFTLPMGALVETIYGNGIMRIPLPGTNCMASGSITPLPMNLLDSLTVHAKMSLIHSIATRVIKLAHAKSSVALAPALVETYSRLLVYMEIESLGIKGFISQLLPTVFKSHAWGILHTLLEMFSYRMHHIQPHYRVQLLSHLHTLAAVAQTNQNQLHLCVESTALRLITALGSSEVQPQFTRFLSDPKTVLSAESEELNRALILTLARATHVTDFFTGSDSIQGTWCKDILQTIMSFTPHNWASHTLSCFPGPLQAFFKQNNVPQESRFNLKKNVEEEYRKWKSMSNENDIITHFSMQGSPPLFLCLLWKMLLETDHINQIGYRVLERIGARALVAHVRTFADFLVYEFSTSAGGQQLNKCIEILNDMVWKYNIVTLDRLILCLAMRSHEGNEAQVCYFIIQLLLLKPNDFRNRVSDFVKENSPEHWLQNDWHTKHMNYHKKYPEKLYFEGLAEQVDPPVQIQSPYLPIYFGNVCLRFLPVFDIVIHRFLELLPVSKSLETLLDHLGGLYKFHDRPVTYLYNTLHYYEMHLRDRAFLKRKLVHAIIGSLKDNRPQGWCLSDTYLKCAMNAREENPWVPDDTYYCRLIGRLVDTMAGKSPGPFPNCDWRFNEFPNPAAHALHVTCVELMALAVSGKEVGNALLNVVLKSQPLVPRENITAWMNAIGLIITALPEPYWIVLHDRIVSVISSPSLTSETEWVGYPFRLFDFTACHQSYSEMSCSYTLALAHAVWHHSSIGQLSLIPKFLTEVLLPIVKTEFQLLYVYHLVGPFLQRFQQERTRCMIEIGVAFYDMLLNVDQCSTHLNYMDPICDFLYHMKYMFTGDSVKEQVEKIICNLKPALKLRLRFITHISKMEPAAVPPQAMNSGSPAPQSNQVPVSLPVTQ

C[C@H]1CN(c2n[nH]c3nc(N[C@H]4CC[C@H](NS(=O)(=O)CCC(F)(F)F)CC4)ncc23)CCO1 — IC50 (Mediator of RNA polymerase II transcription subunit 23 (MED23, Homo sapiens, UniProt Q9ULK4); biochemical): ≥ 20 µM
CC[C@H](C)[C@H](NC(=O)[C@H](CC(=O)O)NC(=O)[C@H](C)NC(=O)[C@H](Cc1ccc(O)cc1)NC(=O)[C@H](CCCCN)NC(=O)c1ccc2c(c1)C(=O)OC21c2ccc(N(C)C)cc2Oc2cc(N(C)C)ccc21)C(=O)N[C@@H](CCC(=O)O)C(=O)N[C@@H](CO)C(=O)N[C@@H](CO)C(=O)N[C@@H](CC(N)=O)C(=O)N[C@@H](Cc1ccc(OP(=O)(O)O)cc1)C(=O)N[C@@H](CCSC)C(=O)N[C@@H](C)C(=O)N1CCC[C@H]1C(=O)N[C@@H](Cc1ccc(O)cc1)C(=O)N[C@@H](CC(=O)O)C(=O)N[C@@H](CC(N)=O)C(=O)N[C@@H](Cc1ccc(O)cc1)C(=O)N[C@@H](CC(=O)O)C(=O)O — Kd (PLCG2 SH2 domain; binding): 1.27 µM
CSCC[C@H](NC(=O)[C@@H](N)CCCNC(=N)N)C(=O)N[C@@H](Cc1ccc(O)cc1)C(=O)N[C@@H](CC(N)=O)C(=O)N1CCC[C@H]1C(=O)N[C@H](C(=O)N[C@@H](CC(C)C)C(=O)N[C@@H](CCCNC(=N)N)C(=O)N[C@@H](Cc1ccccc1)C(=O)O)C(C)C — IC50 (HLA class I histocompatibility antigen, A alpha chain allele A*24:02; binding): 1.61 µM
Cc1cccc(OCC(O)CNS(=O)(=O)c2cnn(C)c2C(=O)O)c1 (stereo not drawn) — Ki (ampC): 239 µM
OC[C@H]1O[C@@H](OCCc2ccccc2)[C@H](O)[C@@H](O)[C@H]1O — EC50 (lacI (Escherichia coli, UniProt P03023); operator DNA release, nitrocellulose filter binding; together with: O1 operator DNA): 500 ± 35 µM
Cc1ccsc1C(Cc1ccccc1)NS(=O)(=O)c1cnn(C)c1C(=O)O (stereo not drawn) — Ki (ampC): 224 µM
CC(C)C[C@H](NC(=O)[C@@H](N)CCCCN)C(=O)N[C@@H](Cc1ccccc1)C(=O)N[C@@H](CO)C(=O)N[C@@H](CCCNC(=N)N)C(=O)N1CCC[C@H]1C(=O)N[C@@H](CC(C)C)C(=O)N[C@H](C(=O)N[C@@H](Cc1ccccc1)C(=O)O)[C@@H](C)O — IC50 (HLA class I histocompatibility antigen, A alpha chain allele A*24:02; binding): 0.134 µM
COc1cc(Nc2ncc(F)c(Nc3ccc4c(n3)NC(=O)C(C)(C)O4)n2)cc(OC)c1OC — IC50 (Alpha-1D adrenergic receptor (ADRA1D, Homo sapiens, UniProt P25100)): > 10 µM
CC[C@H](C)[C@H](NC(=O)c1ccc2c(c1)C(=O)OC21c2ccc(N(C)C)cc2Oc2cc(N(C)C)ccc21)C(=O)N[C@@H](CCC(=O)O)C(=O)N[C@@H](CO)C(=O)N[C@@H](CO)C(=O)N[C@@H](CC(N)=O)C(=O)N[C@@H](Cc1ccc(O)cc1)C(=O)N[C@@H](CCSC)C(=O)N[C@@H](C)C(=O)N1CCC[C@H]1C(=O)N[C@@H](Cc1ccc(OP(=O)(O)O)cc1)C(=O)N[C@@H](CC(=O)O)C(=O)N[C@@H](CC(N)=O)C(=O)N[C@@H](Cc1ccc(O)cc1)C(=O)N[C@H](C(=O)N1CCC[C@H]1C(=O)N[C@@H](CO)C(=O)N[C@@H](C)C(=O)N[C@@H](CC(=O)O)C(=O)O)C(C)C — Kd (PLCG2 SH2 domain; binding): 1.14 µM
CC[C@H](C)[C@H](NC(=O)[C@@H](N)CCCCN)C(=O)N[C@@H](Cc1ccccc1)C(=O)N1CCC[C@H]1C(=O)N[C@@H](CCCCN)C(=O)N1CCC[C@H]1C(=O)N[C@@H](CC(C)C)C(=O)N[C@@H](Cc1ccc(O)cc1)C(=O)N[C@@H](CCSC)C(=O)O — IC50 (HLA class I histocompatibility antigen, A alpha chain allele A*24:02; binding): 27.7 µM
C[C@H]1O[C@@H](Oc2ccccc2[N+](=O)[O-])[C@H](O)[C@@H](O)[C@H]1O — EC50 (lacI (Escherichia coli, UniProt P03023, N125C); operator DNA binding, nitrocellulose filter binding; together with: O1 operator DNA): 40 ± 3.8 µM
CSCC[C@H](NC(=O)[C@H](CO)NC(=O)[C@H](CC(C)C)NC(=O)[C@H](CO)NC(=O)[C@H](Cc1c[nH]cn1)NC(=O)CNC(=O)[C@H](Cc1ccc(O)cc1)NC(=O)[C@H](CC(C)C)NC(=O)[C@@H](N)CCCNC(=N)N)C(=O)O — IC50 (HLA class I histocompatibility antigen, A alpha chain, allele A*02:01 (Homo sapiens, UniProt P04439); binding): 0.159 µM
CCOC(=O)C(CC1CCCCC1)NS(=O)(=O)c1cccc(Cl)c1O (stereo not drawn) — Ki (ampC): 95.9 µM
CSCC[C@H](NC(=O)[C@@H](N)Cc1ccc(O)cc1)C(=O)N[C@@H](CC(=O)O)C(=O)N1CCC[C@H]1C(=O)N[C@H](C(=O)N1CCC[C@H]1C(=O)N[C@@H](CC(C)C)C(=O)N[C@@H](CCC(N)=O)C(=O)N[C@@H](Cc1ccccc1)C(=O)O)C(C)C — IC50 (HLA class I histocompatibility antigen, A alpha chain allele A*24:02; binding): 0.117 µM
CCOc1ccc(NS(=O)(=O)c2cccc(Cl)c2O)c2ncccc12 — Ki (ampC): 18.2 µM

A few entries again:
CSCC[C@H](NC(=O)[C@@H](N)Cc1ccc(O)cc1)C(=O)N[C@@H](CC(=O)O)C(=O)N1CCC[C@H]1C(=O)N[C@H](C(=O)N1CCC[C@H]1C(=O)N[C@@H](CC(C)C)C(=O)N[C@@H](CCC(N)=O)C(=O)N[C@@H](Cc1ccccc1)C(=O)O)C(C)C — IC50 (HLA class I histocompatibility antigen, A alpha chain allele A*24:02; binding): 0.117 µM
